Measured values collected from several papers.
Each line is one published result; not all experiments were run side by side. Numbers after ± are the reported error.

The concentration of `O=c1[nH]c(=O)[nH]c(=O)[nH]1` is reported as 2300 to 173000 ng/mL (LC-MS/MS; rat CD IGS, female, non-pregnant, serum; oral, 1000 mg/kg/day, 10 days, range).
For `O=C(NCCS)c1cccc(C(=O)NCCS)c1`, the concentration was 309 ng/mL (male Sprague-Dawley rat, plasma; intravenous, 1 mg/kg, 15 min).
The concentration of `Nc1nc(N)nc(N)n1` is reported as 32100 to 767000 ng/mL (LC-MS/MS; rat CD IGS, female, pregnant and non-pregnant, serum; oral, 1000 mg/kg/day, 10 days, range).
`c1cc2ccc3cccc4ccc(c1)c2c34` has a concentration of 36.7 ± 5 ng/g (male Wistar rats, tongue; oral, 4 mg/kg, 24 h).
With `CC(C)C[C@H](NC(=O)[C@H](CCC(=O)O)NC(=O)[C@H](CCC(=O)O)NC(=O)[C@H](CC(=O)O)NC(=O)[C@H](CCC(=O)O)NC(=O)[C@H](CCC(=O)O)NC(=O)[C@H](CCC(=O)O)NC(=O)[C@@H](N)CC(=O)O)C(=O)O` the concentration was 2.59 ng/mL (rat, CSF; intravenous, 11.0 mg/kg, 180 min).
The concentration of `COc1ccc(C(=O)NCc2cc(C(C)C)no2)cc1OC1CCN(C)CC1` is reported as 23.4 ng/g (male Sprague-Dawley rat, brain; intravenous, 1 mg/kg, 15 min).
For `Cc1c(P(=S)(c2ccccc2)c2ccccc2)n2ccccc2[n+]1C/C=C/c1ccccc1`, the concentration was 28 ng/g (mouse, brain; intraperitoneal, 10 mg/kg, 8 h).
`C[C@H]1N=C(c2ccccc2F)c2cc(Br)ccc2-n2cnc(C(=O)O)c21` gave a concentration of 455 nM (Swiss Webster mice, lung; oral, 25 mg/kg, 60 min, propylene glycol 40%, HPMC 60%).

A few entries again:
`c1cc2ccc3cccc4ccc(c1)c2c34` has a concentration of 36.7 ± 5 ng/g (male Wistar rats, tongue; oral, 4 mg/kg, 24 h).
